Experimental data collected from several papers.
Numbered parts are unrelated; each lists some results of a single study. Positions count from the first letter of the parent shown.

Study 1
Target: CCNB1, cyclin fold, Cln2 fusion (human)
Technique: yeast growth competition, sequencing
Sample: yeast
Setting: strong parent motif
Reference: not given
Direction: higher = stronger binding
Endpoint: normalised enrichment score
Parent: PKN2 docking peptide (human); VSAVQKLDFSDTM; partner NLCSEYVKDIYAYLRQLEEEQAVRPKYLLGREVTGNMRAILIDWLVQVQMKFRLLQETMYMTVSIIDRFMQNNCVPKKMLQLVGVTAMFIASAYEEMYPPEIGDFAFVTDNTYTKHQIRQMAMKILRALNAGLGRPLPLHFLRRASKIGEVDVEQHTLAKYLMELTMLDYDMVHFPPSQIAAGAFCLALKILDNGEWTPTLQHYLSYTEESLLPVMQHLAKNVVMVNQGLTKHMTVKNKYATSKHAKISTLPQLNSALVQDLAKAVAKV
S2Q: 2.21
A3Q: 0.0764
M13N: 2.27
D8S: 1.01
L7F: -0.0736
L7Q: 0.00496
S10I: 1.37
L7W: -0.057
S2F: 2.15
M13W: 1.68
S2V: 1.08
S10E: 2.79
V4T: 0.351
V4L: 0.721
T12V: 1.95
D11I: 0.198
S2G: 1.86
D8R: 0.755
M13E: 2.92
F9N: 0.0905
D11H: 0.969
L7R: 0.429
F9T: 0.141
S10D: 3.07
F9V: -0.344

Study 2
Target: FOSB, bZIP domain (human)
Technique: DHFR protein complementation
Sample: yeast
Setting: single substitutions, most at no-binding floor
Reference: wild-type JUN-FOS pair
Direction: higher = stronger binding
Endpoint: binding fitness
Parent: JUN, bZIP domain (human); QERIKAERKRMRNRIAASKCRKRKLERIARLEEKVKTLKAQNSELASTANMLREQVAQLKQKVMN
V56S: -1.39 natural log
V56W: -1.31 natural log
L45E: -1.49 natural log
L45D: -1.27 natural log
A40P: -1.48 natural log
L59W: -1.22 natural log
L38D: -1.35 natural log
L52W: -1.26 natural log

Study 3
Target: ABI1, truncated, D143A, DHFR fusion (Arabidopsis thaliana)
Technique: DHFR PCA, deep sequencing
Sample: yeast
Setting: methotrexate growth selection, single substitutions
Together with: (+)-ABA 0 µM
Reference: wild-type fitted maximum
Direction: higher = stronger binding
Endpoint: relative binding score
Parent: PYL1, truncated, DHFR fusion (Arabidopsis thaliana); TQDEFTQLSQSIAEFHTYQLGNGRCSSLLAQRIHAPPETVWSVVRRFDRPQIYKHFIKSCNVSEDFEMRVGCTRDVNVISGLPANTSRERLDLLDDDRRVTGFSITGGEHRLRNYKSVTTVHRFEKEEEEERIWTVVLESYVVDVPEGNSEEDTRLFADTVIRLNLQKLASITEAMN; partner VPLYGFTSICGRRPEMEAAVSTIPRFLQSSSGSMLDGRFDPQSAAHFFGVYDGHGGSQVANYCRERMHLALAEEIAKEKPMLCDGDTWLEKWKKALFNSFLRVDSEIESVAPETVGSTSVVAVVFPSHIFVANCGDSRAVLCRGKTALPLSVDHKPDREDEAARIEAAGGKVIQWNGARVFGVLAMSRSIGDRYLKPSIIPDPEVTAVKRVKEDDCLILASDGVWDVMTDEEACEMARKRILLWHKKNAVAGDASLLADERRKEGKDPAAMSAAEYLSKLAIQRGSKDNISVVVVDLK
R99A: -4.45%
T73P: 1.35%
S150L: 4.94%
G81M: 9.27%
G108F: -6.94%
I133C: 45.6%
L28G: 1.84%
L156Y: -8.76%
A13K: 33.3%
D75N: 22.3%
V62H: -4.57%
E38L: 1.26%
D144R: -1.08%
E151Y: 2.38%
R98I: -0.44%
I12S: -1.89%
T101Q: -7.47%
E151D: 4.1%
R88A: 2.66%

Study 4
Target: RNA binding protein fox-1 homolog 2, RRM domain, GST-SBP tag (RBFOX2, Homo sapiens, UniProt O43251-10, residues 100-194)
Technique: RNA Bind-n-Seq
Molecule type: RNA
Sample: in vitro
Tested at: 365 nM
Setting: natural RNA segment, single round, ends assumed
Reference: no-protein control
Direction: higher = stronger binding
Endpoint: RBNS enrichment (R)
All sequences stand within: GGGAGUUCUACAGUCCGACGAUC … UGGAAUUCUCGGGUGCCAA
Construct (chain): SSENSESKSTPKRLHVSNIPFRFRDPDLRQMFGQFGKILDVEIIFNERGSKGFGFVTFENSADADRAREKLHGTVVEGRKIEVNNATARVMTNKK
AAAAAAAUCUCAAGCAAACUUGGAGUGGCAGUCCAGGGCAUGUCGCAGGAGCAGGAGUGGCUCCAAGCUGUGCUCUCCAUGAACUCUGGCUCUGGGGAGAUUUCUAGUAA: 0.932
CCUCCAUCCUUUCUUCUCUGGUCCCCAUCCCUGUCUCUCCCUUUCACCCUUGCCCUCCAGUCCUCUACCUCUGGCCUGCCCCUAUUUCUGAAAGCUUCUUCCAGUCCCUG: 1.12
CCUGAGCAGUUCUACCCUCCCAAGGCACCAGUACUCUACCAUGGGGCAUCCCAAGUGGGGUCCUCACCCAUCCCAGCUACUGCAGCUCUGUAUUACUUUGUCAUUUCCUG: 0.242
GCCCACAGCCUUCCGUGUGGGAUCUGCCAGGACAAGCUGGCUAGACCUCUGAGAAGUUGGAGAAGUCAGGAAAUUGUACUCUCCACACCGUCCUGGUUUAGUGGAUGGGG: 0.421
AGGGCAUGGUCUCAUCUCCGCAUCAGGAAUUCACCUGGAGGUUGAAAAGAGAAAAGAAAAAGCACCAGCUCUUGUGUGUUUGUGACCUGAUGAAACACUUCCUGGCGUCU: 0.76
GGACCAAUGGGCCCAAGAUAGGUGCCCCAGAGCUGUUAAUGACUUCAGCUGCCUCACUUCCUGCAAGAUUGGCCUGUGGCAUCUUUGCCUUGGGUGUUGGCCACAGGGUC: 0.475
GCUGGUCACCGCAUAUCCUUGCCUUCCUUUGGAAUUCUCUUAAGGGAAAGGAAUUUUGCACUUAGCCAUGGUCGGGUUGGAAGCAAAGCCUUGGGCUUUUCCUGUCCCUA: 0.227
UUUUGAGAAUUUUUUUGCCCGUCCCUUUGGUUUCAAAAGUUUCACGUCUUGGUGCCUUUUGUGUGACACGCCUUGCCGAUGGCUUGACAUGCGCAGAUGUGAGGGACACG: 5.5
AAGUUGCAAACAAUAUCGCUGAACAGUAGGGUGUGUGGUGGUUUGGGGCAGUCUGACUUCACUUUAGUGUAUGACGUCUGUAGCCAAUGGGAACGUGAAAUAUUGGUGCG: 0.632
CUAGUGUUUGUGCUAACCUAGUCAGAAGCAAGUGUCUCACUCACUUGCUGCAGAUGGAACAAAUGCCGCCUGGCUUUGUAUUCCCCUUUAGGAUUCUAUUACAUAUGCAA: 0.227
CCUCAGCCCGGGACGCCACAAACUGAAGCGAGUUCCCUGCUUUGCUCGUCACAAAUGCCAAACUGACUGCUCUUUCCCAGUGCCCAGUGCUGUCUUUUGCUUCUGUUUGA: 0.595
GCGUGUCGGGCGUCUGCUGGCCCUGAGACAUCCAGUCUUCCACACUCAACUGUGGGAUGGGAGGGUGGCGUGGCCUUACCCCAUGAGGCUGUCCAGGCUCUGGCACACAG: 0.425

Study 5
Target: Sal-like protein 4, full length isoform A (SALL4, Homo sapiens, UniProt Q9UJQ4, residues 1-1053)
Sequence of UniProt Q9UJQ4 (whole entry, looked up): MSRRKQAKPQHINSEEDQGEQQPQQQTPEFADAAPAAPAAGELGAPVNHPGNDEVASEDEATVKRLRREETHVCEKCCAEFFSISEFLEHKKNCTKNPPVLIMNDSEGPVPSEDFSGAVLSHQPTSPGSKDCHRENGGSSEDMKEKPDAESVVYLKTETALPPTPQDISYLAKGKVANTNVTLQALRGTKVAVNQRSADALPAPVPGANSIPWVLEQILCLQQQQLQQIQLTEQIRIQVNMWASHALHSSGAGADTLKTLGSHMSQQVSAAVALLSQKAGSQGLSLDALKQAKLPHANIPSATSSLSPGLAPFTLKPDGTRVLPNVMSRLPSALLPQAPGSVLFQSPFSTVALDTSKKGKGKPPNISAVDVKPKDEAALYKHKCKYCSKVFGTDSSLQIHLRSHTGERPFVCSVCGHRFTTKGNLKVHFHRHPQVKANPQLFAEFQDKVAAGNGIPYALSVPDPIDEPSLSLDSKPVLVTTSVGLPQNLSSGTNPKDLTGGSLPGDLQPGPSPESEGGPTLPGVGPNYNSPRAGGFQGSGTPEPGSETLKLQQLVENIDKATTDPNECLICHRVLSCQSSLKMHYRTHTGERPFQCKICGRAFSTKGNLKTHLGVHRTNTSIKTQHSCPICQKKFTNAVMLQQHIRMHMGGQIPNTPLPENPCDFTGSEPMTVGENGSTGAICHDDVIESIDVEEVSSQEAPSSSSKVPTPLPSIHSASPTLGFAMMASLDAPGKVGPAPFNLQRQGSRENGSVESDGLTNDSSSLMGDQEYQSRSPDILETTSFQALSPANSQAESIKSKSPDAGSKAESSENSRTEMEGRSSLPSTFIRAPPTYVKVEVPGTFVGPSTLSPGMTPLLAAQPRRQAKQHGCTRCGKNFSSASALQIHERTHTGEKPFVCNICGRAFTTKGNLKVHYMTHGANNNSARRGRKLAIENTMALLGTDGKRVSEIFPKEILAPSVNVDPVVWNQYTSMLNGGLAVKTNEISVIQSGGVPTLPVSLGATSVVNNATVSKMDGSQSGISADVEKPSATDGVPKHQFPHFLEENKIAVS
Technique: universal PBM
Molecule type: double-stranded DNA, one strand shown
Sample: in vitro
Tested at: 600 nM
Setting: 8-mer, flanks averaged, mean of replicates
Direction: higher = stronger binding
Endpoint: E-score
ACAGGAAG: -0.0463
GGATAACC: -0.165
CAGGTATG: -0.031
AGGTTTTG: -0.0654
AAACTACT: 0.201
CGTTTTTC: 0.125
CCCTCCTA: -0.12
CCGGTCCA: -0.405
AGTAAAAA: 0.335
CCATGCAA: 0.13
ACAGTTGG: 0.00554
CACTCCTG: -0.0884
AAACGGTA: 0.0854
AAGGTGGA: -0.112
CTTCCATA: 0.271
GCCTCTTA: -0.0932
ATCACGTC: 0.00437
AGACTTCC: -0.0596
ACGAATGC: 0.0714
AGTAATCG: 0.0768
AGTCCCAA: -0.0947
TTATTAAA: 0.452
CCCCATCG: -0.277
TACGACCA: -0.0277
CGATCGAA: -0.0176

Study 6
Target: Histone acetyltransferase KAT6A, winged helix 1, GST fusion (KAT6A, Homo sapiens, UniProt Q92794, residues 1-85)
Technique: protein binding microarray
Molecule type: double-stranded DNA, one strand shown
Sample: in vitro
Tested at: not given
Setting: 8-mer, flanks averaged, mean of 2 arrays, mostly near background
Reference: not given
Direction: higher = stronger binding
Endpoint: E-score
Target sequence (chain): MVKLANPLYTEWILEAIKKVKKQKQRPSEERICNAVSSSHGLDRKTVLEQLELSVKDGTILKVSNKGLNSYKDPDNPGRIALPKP
CAACCGAC: 0.0338
CTAACCTA: -0.146
CGACGTTA: -0.0108
CAAACCAC: -0.0153
ACTTGATG: -0.14
AGAGACGG: -0.0519
ATCCCTTA: -0.135
AGTCAATG: -0.173
CCACAAGC: -0.0666
CCTACAAC: -0.157
GCGATCGA: 0.185
ATAGGATC: -0.119
GGTGAAAC: -0.00972
CGGATTAC: 0.0988
AGAACTTA: -0.128
CTAGCCAA: -0.111
CCGCATCA: 0.209
CTATCATC: -0.0255

Study 7
Target: Interferon regulatory factor 7, full length, phosphomimetic (IRF7, Homo sapiens, UniProt Q92985, residues 1-503, S101K/S471D/S472D/S475D/S476D/S477D/S483D/S484D/S487D)
Technique: protein-binding microarray
Molecule type: double-stranded DNA, one strand shown
Sample: in vitro
Tested at: 250 nM
Setting: 60-bp whole probe
Together with: salmon DNA 0.4 mg/ml
Reference: random background probes
Direction: higher = stronger binding
Endpoint: log fluorescence
All sequences stand within: GCCTAGCAC … GTCTTGATTCGCTTGACGCTGCTG
Residues (chain): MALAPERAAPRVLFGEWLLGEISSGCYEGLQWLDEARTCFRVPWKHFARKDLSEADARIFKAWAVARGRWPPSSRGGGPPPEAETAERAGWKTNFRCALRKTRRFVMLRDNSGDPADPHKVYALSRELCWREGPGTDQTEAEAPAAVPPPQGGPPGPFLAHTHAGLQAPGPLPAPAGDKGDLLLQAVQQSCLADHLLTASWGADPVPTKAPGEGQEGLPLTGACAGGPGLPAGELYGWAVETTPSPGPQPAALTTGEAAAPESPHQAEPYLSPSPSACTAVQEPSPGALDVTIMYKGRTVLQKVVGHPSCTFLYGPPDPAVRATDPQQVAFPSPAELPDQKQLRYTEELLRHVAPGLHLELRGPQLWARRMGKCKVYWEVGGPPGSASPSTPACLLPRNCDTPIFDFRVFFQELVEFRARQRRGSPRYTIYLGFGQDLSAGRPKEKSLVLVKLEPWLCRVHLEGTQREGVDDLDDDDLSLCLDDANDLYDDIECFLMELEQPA
TCACCCCTAGGGGGCAGTATGTGCTAG: 0.536 z-score
GACGGTTTCCTTCTACTGACGTGCTAG: 2.78 z-score
TTAGGTCTCCCTCTCCTTTAGTGCTAG: -0.269 z-score
TCAAAAATGATGTTTTAGACTGTGCTA: -0.343 z-score
AACTGTCTGCCTTTCAATCCGTGCTAG: -0.31 z-score
TTAGATATCGGGACTAGATTAGTGCTA: 0.206 z-score
GACGGACTGAGTTTCGGGACGTGCTAG: 2.35 z-score
TCAAAAAATGGAAATCTAACTGTGCTA: 0.182 z-score
TTAGGGCTCCTTCTCCTTTAGTGCTAG: -0.181 z-score
GTCTCTTGTTCTCTCTGGCCGTGCTAG: 1.67 z-score
GACCGACTGCTACTGCTGACGTGCTAG: -0.786 z-score
TTAGGTTCCCTTTTCCTCTAGTGCTAG: 3.97 z-score
TTAGGTTCCCGTTTCGGTTAGTGCTAG: 6.42 z-score
CTGCTGATCGGTTGGGGTGGGTGCTAG: -0.184 z-score
TCAAGTTTTCCTTCATGACTGTGCTAG: 1.74 z-score
GACGGTAGCGGTCTCGGGACGTGCTAG: -0.764 z-score
AACAGTTCATGTTTTGGAAAGTGCTAG: 0.714 z-score
TCATTTATAAATTATCTTACTGTGCTA: 1.23 z-score
GACGGACTGGCTCTCGGGACGTGCTAG: -0.734 z-score
TTAGATATCGGGTATTGATTAGTGCTA: 0.317 z-score
GACGATCCCAGTATCGAGACGTGCTAG: 0.406 z-score
TCACGTTACTTCCTCAAACTGTGCTAG: 0.704 z-score
TTAGGTTACGGGACTGGGTTAGTGCTA: 0.0852 z-score

Repeated from above (study 6):
CCACAAGC: -0.0666
CAACCGAC: 0.0338
GGTGAAAC: -0.00972
ATAGGATC: -0.119
ATCCCTTA: -0.135
AGAACTTA: -0.128
CGGATTAC: 0.0988
AGTCAATG: -0.173
GCGATCGA: 0.185
CCTACAAC: -0.157
